Published values pooled from the literature.
Each numbered part is a random draw from the data of one study; scales do not carry over between parts. Changes are numbered by the printed parent chain.

Study 1 — technique: RNA Bind-n-Seq; form: RNA; sample: in vitro; concentration: 1 µM; setting: whole 134-nt RNA, ends assumed; together with: 150 mM KCl; relative to: input library; reading: higher = stronger binding; measurement: log2 enrichment
Target: Ras GTPase-activating protein-binding protein 1, RRM domain (G3BP1, Homo sapiens, UniProt Q13283)
Chain of UniProt Q13283 (whole entry, looked up): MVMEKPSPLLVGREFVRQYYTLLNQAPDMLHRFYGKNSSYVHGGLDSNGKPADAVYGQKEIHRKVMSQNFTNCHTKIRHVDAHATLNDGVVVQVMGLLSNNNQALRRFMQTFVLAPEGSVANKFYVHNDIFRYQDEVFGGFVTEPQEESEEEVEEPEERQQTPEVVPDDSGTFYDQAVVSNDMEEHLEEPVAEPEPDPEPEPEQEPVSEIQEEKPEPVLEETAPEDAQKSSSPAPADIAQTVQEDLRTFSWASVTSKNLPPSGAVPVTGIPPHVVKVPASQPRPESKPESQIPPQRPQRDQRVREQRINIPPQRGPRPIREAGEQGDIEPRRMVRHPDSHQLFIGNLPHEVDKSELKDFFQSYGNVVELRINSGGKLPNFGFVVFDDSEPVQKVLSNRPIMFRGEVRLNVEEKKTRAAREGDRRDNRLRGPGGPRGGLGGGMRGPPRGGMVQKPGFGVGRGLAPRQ
Constant ends, left off below: GGGAGUUCUACAGUCCGACGAUC … UGGAAUUCUCGGGUGUCAAGG
AGUCCUGUGCUACACAUCGUAUGUACCGAAUCGGGAAAAAAAGGGAGGGAAAAAGGGAAAGUAUUAUGUUACGCCGUUCGGAUCUGCACU: 0.515
CACAGACAACAUGCACCCACACAGACACAGAGGGAAGGGGUUGGGAUGGGGACAGGGUGCACAGCAGGGCGGGGUAGGACCCCAGCCCCU: -0.279
AGUCCUGUGCUACACAUCGUAUGUACCGAAUCGGGGAAAGGGGAGGGGUUUUUGGGGAAAGUAUUAUGUUACGCCGUUCGGAUCUGCACU: 0.908
UGGCCCUGGUGGCAUGCGGGCAGGAAGAGGUGGCCUCAUGGAUCGUGGUGGUCCCGGUGGAAUGUUCAGAGGUGGCCGUGGUGGAGACAG: 1.02
UGGCCGUGGUGGCAUGCGGGGAGGAAGAGGUGGCCUCAUGGAUCGUGGUGGUCCCGGUGGAAUGUUCAGAGGUGGCCGUGGUGGAGACAG: 0.611
UCAAGUCCUGUGCUACACAUCGUAUGUACCGAAUCGGCCCGGGCCCGGCCCGGGAAAGUAUUAUGUUACGCCGUUCGGAUCUGCACUUCC: -0.612
AGUCCUGUGCUACACAUCGUAUGUACCGAAUCGGGAAAAAGGAAAAAGGGAAAAAGGGAAAGUAUUAUGUUACGCCGUUCGGAUCUGCAC: -0.0709
GUCCUGUGCUACACAUCGUAUGUACCGAAUCGGUUUUUGGUUUUUUUGGAAAAAAAGGAAAGUAUUAUGUUACGCCGUUCGGAUCUGCAC: -0.23
UGGGAGGUGGAUUUUGUUUAUUUUUUUAGCUCAUUUCCAGGGGUGUGAAUUUUUUUUUAAUAUGUGUCAUGAAUAAAGUUGUUUUUGAAA: 1.76
UGGCCCUGGUGGCAUGAGGGGAGGAAGAGGUGGCCUCAUGGAUCGUGGUGGUCCCGGUGGAAUGUUCAGAGGUGGCCGUGGUGGAGACAG: 0.861
UCAAGUCCUGUGCUACACAUCGUAUGUACCGAAUCGGUUUGGGUUUGGUUUGGGAAAGUAUUAUGUUACGCCGUUCGGAUCUGCACUUCC: -0.229
GCAGGAAGUAAAAACAAAUGGAAAUGCUUCGGAUAGUGGCAGGGGUGGGGGUUGCUAAGGAAAGGGUGGGAUGGGAGUGGGUAAAGUGUU: 0.598
UCAAGUCCUGUGCUACACAUCGUAUGUACCGAAUCGGGUUGGUUGGGGUUGGGGAAAGUAUUAUGUUACGCCGUUCGGAUCUGCACUUCC: 0.382
ACCAUGCAGGUGGGCAUCUUUGGGAAGUGGGGCAAGGGGGGGAUAGGGAGGGGGGUAACACUUUGGGAAUAGGUGGUCCCAGGUCGUUUC: 0.655

Study 2 — technique: universal PBM; form: double-stranded DNA, one strand shown; sample: in vitro; concentration: 600 nM; reading: higher = stronger binding; measurement: E-score
Target: Sal-like protein 4, full length isoform A (SALL4, Homo sapiens, UniProt Q9UJQ4, residues 1-1053)
Chain of UniProt Q9UJQ4 (whole entry, looked up): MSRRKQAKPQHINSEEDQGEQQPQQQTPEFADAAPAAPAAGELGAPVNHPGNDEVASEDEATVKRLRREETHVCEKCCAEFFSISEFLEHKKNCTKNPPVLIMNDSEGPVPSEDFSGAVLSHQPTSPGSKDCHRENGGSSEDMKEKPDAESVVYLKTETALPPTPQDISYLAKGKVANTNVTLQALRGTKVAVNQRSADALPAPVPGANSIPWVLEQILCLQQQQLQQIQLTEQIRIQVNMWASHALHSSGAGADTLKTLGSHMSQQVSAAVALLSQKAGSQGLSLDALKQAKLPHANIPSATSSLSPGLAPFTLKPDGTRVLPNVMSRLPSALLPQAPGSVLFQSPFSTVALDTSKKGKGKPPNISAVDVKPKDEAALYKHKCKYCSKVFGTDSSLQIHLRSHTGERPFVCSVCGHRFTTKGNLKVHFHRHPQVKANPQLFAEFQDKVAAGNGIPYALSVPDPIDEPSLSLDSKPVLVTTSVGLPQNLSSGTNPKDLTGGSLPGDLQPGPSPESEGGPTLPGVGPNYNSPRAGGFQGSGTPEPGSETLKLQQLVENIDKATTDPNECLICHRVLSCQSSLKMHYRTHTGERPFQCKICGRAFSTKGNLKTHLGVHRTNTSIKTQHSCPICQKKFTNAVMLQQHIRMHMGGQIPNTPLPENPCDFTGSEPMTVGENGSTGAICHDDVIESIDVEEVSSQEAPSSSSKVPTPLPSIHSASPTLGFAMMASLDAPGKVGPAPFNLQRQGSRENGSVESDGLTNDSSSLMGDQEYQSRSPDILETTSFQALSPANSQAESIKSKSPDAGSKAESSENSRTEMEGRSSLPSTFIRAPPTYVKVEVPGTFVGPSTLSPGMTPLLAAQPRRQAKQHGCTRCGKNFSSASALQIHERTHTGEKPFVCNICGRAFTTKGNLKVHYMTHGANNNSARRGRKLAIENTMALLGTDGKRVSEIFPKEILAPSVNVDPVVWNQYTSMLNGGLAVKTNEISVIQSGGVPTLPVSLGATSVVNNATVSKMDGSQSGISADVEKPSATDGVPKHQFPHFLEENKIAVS
Setting: 8-mer, flanks averaged, mean of replicates
GTTACACA: 0.107
ACTTAGCA: 0.0511
ATCGGGAG: -0.145
CGCATCGC: -0.2
AGTAACGG: 0.0922
AGCCACAG: -0.225
AACTGGCT: -0.0756
CTTTGGCA: -0.0985
AGATCAGG: -0.168
AACGGAAA: 0.0614
GCTGTGCA: -0.269
ATCAGATC: -0.0136
AATGTACA: 0.27
CGGGTTAA: -0.122
CCCGAGCA: -0.115
CCAAGGTC: -0.192
GAAAGTGA: 0.172
CCGCTTAG: -0.35
ACGATCAG: -0.00598
AAAATGCG: 0.0875
AAAACAGT: 0.272
CCATTGGA: -0.113

Study 3 — technique: protein binding microarray; form: double-stranded DNA, one strand shown; sample: in vitro; concentration: not given; relative to: not given; reading: higher = stronger binding; measurement: E-score
Target: Histone acetyltransferase KAT6A, winged helix 2, GST fusion (KAT6A, Homo sapiens, UniProt Q92794, residues 85-181)
Setting: 8-mer, flanks averaged, mean of 2 arrays, mostly near background
Construct (chain): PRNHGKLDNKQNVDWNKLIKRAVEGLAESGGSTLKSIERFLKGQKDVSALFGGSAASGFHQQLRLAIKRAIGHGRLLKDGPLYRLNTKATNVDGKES
TAAAACAA: 0.14
GGTGGAAC: 0.059
CCTTAGAC: -0.152
AAGCAGGC: 0.0219
CAGATAGA: -0.0566
CCACGGAG: 0.128
CCACGGGA: 0.0631
ATTTCTCA: 0.0698
CTTAGATA: 0.00745
AGTGGCAC: -0.0655
CTGAATTC: -0.0857
TCATGGGA: -0.0905
AACCCGCC: 0.0819
CCCCATAA: -0.022
CAGTCCAG: -0.0307
ATTCTGCA: 0.0782
AAAGCGCA: 0.021
GCGTCAAC: -0.108
ACAGCCCA: -0.061
ACAGTACT: -0.0109
AAGCAACA: 0.0602
ACCAAGGA: -0.0456
AAGCTCTG: -0.0203
GGGAAATA: 0.0365
CAATAACG: 0.204

Study 4 — technique: RNA Bind-n-Seq; form: RNA; sample: in vitro; concentration: 365 nM; relative to: no-protein control; reading: higher = stronger binding; measurement: RBNS enrichment (R)
Target: RNA binding protein fox-1 homolog 2, RRM domain, GST-SBP tag (RBFOX2, Homo sapiens, UniProt O43251-10, residues 100-194)
Setting: natural RNA segment, single round, ends assumed
Constant ends, left off below: GGGAGUUCUACAGUCCGACGAUC … UGGAAUUCUCGGGUGCCAA
Residues (chain): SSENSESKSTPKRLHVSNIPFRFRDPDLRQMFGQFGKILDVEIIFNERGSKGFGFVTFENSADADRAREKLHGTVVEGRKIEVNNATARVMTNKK
UAAGUCAGAAUACAAAUCAGCACAGAUAUUCGAAUGUUUCCAAUAUUUUAAAAUGUAAUGUUACUUAUGAAAAGUAUUUUGCUUAAGGUUGUGUGUGUAUUGUGUAUAUA: 0.455
UCAGGGCUCCAUUCUGGAGGGCACCACGGUGACCCGGGCCAUCUCAGUAUUGCCUGUGGGGGCCACCCCUCCACCCCCACCCCCAAGUGCCUUCGCUCUGUUUUUAUACC: 0.373
UUCUCCCGUUCUCAAGGGAGUCAGAUCAGGGGAACUAUUCUAGGGUAUGUUGCGGGGUAUUAAGCAGGAAACCACUGUGUGGUGGGGGGCACUGGGCUUGUUGGGGCCAG: 0.956
UAGAUCACCUUAUGGAUGUCGCAAUAAUACAAACCAGUGUACCUCUGACCUUCUCAUCAAGAGAGCUGGGGUGCUUUGAAGAUAAUCCCUACCCCUCUCCCCCAAAUGCA: 5.34
GCACCACUGUGUUGUGGCUUGUUGACCGGGAAUGUGUCACCCCUGCCAGGGAACUCUUCUCCUCGCGGGGGACUUGGGAUGGCCAUCAGACCUUCUAGGGUCUGGCUGGG: 0.234
CUAUGAAAUGUCUUUUUUUCUUUUUGGUAUUUUACAUUAUUCACAUUUUAGAAUAACAAGAACACCAAGAAUUACCCCUAAAACAGAGACCCUGUAUUUAAUCUACUUUG: 0.409
CCAGCUUCCCUGACCGCUGCUGCUCGGGGAGGGCUGGGGCUGGCCGGGGGUCCUGUGGAGGAGUACAUGGAGGACUCCAGGUACAGCGCAGGAGUCACGGCUUUUGUUUU: 0.267
UUGUGUGGAAAGUCAGAGGAAAAAUGAUCCAGUGGACACUUGGGGAUUAUCUGUCAUUCAAGAUCCUUCCUUCAACCCCAAGGUCAGCUCCCAUCUCAUUUCCAGAAAGG: 0.346
UUUCUCUACCAAAGAAAAAAUGAGCAGGUUUAGGUUUUUACAUGACUUAUAUACAUUAGAUAAAAGGAGCUGUAUAAUUUAGCAGGAAGGGACUAUGGGAGAAUACUUUA: 0.629
UUCAGUUGCUCUAAGCACCAGAGGACUUGUUUCAGAAAAGGGGAGUGGGAACGCCCUCGACUUUGCCCUCCUCCGGAGCAUCUCUGGGACGCAGGGAGUCUGGCUAGCGU: 1.11
ACCAGGAGCAGGAGCCAAGCAUGUCCAGUCCUCUUCUGAGACCUCUGAGGUCUCAGAAGAGAAACUUGACAGUGUCUGGUCCAUGGGGCUGCUCAGAAAAGCGCUGCUCU: 0.462
AUGAUGAUCACUGUGCUAUAAUGUACUGAAACCACCAUAUUACAGAAAUAUUUACUACAUAUUUUCCAUCUGUAGUUUCUCAGAAGGGCUAUGGAUUAGUUUGAACUGUC: 0.315

Study 5 — technique: DHFR PCA, deep sequencing; sample: yeast; together with: (+)-ABA 0 µM; relative to: wild-type fitted maximum; reading: higher = stronger binding; measurement: relative binding score
Target: ABI1, truncated, D143A, DHFR fusion (Arabidopsis thaliana)
Setting: methotrexate growth selection, single substitutions
Starting sequence: PYL1, truncated, DHFR fusion (Arabidopsis thaliana); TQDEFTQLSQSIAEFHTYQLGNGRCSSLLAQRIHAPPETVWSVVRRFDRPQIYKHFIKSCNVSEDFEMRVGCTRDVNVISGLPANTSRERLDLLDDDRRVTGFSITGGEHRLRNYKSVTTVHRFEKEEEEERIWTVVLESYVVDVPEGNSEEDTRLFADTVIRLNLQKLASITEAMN; partner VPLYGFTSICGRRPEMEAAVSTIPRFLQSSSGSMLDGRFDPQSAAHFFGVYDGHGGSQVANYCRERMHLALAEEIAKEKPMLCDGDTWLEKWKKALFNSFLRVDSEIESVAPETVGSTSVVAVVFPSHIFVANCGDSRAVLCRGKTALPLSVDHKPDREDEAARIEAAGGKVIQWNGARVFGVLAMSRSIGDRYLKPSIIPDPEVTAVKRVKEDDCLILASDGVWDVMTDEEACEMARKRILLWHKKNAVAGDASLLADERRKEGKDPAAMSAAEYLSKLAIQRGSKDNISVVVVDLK
V70T: 4.11%
T1Y: 40.1%
T39G: 2.22%
V137K: -1.69%
L166T: 4.41%
W41Y: 0.629%
L29T: 1.89%
R49H: 3.31%
E64I: 5.6%
G148N: -13.7%
E174M: 0.264%
A30E: -6.33%

Study 6 — technique: aptamer microarray, sandwich; form: DNA with 2'F-ANA; sample: in vitro; concentration: 200 nM; together with: Cy3 exosite-II aptamer, 400 nM; reading: higher = stronger binding; measurement: mean fluorescence intensity; strand: GGTTGGTGTGGTTGG
Target: Prothrombin, mature alpha-thrombin (F2, Homo sapiens, UniProt P00734)
Setting: whole 15-mer aptamer, many near background
2'F-ANA at 3 7 9 10 12 14: 416 a.u.
2'F-ANA at 1 5 9 10 15: 45.6 a.u.
2'F-ANA at 2 3 4 6 8 9 11 12 13 14 15: 212 a.u.
2'F-ANA at 6 7 8 10 12: 229 a.u.
2'F-ANA at 1 3 4 6 9 10 11 12 13: 78.8 a.u.
2'F-ANA at 1 3 4 6 11 13: 122 a.u.
2'F-ANA at 2 3 4 6 7 10 14 15: 163 a.u.
2'F-ANA at 1 4 5 7 8 10 12 15: 58.8 a.u.
2'F-ANA at 1 2 4 8 14 15: 57.8 a.u.
2'F-ANA at 2 5 7 8 9 11 12: 144 a.u.
2'F-ANA at 1 2 3 8 11 12 14 15: 104 a.u.
2'F-ANA at 2 4 5 6 7 10 11 12 13 15: 47.8 a.u.
2'F-ANA at 3 4 6 7 8 12 13: 1520 a.u.
2'F-ANA at 3 4 6 10 13 15: 191 a.u.
2'F-ANA at 1 5 10 11 15: 49.4 a.u.
2'F-ANA at 5 8 9: 90.8 a.u.
2'F-ANA at 1 2 6 7 9 11 12 13: 155 a.u.
2'F-ANA at 1 2 3 6 7 8 10 12 14 15: 53.6 a.u.

A few entries again (study 6):
2'F-ANA at 1 5 9 10 15: 45.6 a.u.
2'F-ANA at 2 3 4 6 8 9 11 12 13 14 15: 212 a.u.
2'F-ANA at 6 7 8 10 12: 229 a.u.
2'F-ANA at 1 3 4 6 9 10 11 12 13: 78.8 a.u.
2'F-ANA at 1 3 4 6 11 13: 122 a.u.
2'F-ANA at 2 3 4 6 7 10 14 15: 163 a.u.
2'F-ANA at 1 4 5 7 8 10 12 15: 58.8 a.u.
2'F-ANA at 1 2 4 8 14 15: 57.8 a.u.
2'F-ANA at 2 5 7 8 9 11 12: 144 a.u.
2'F-ANA at 1 2 3 8 11 12 14 15: 104 a.u.
2'F-ANA at 2 4 5 6 7 10 11 12 13 15: 47.8 a.u.
2'F-ANA at 3 4 6 7 8 12 13: 1520 a.u.
2'F-ANA at 3 4 6 10 13 15: 191 a.u.
2'F-ANA at 1 5 10 11 15: 49.4 a.u.
2'F-ANA at 5 8 9: 90.8 a.u.
2'F-ANA at 1 2 6 7 9 11 12 13: 155 a.u.
